Experimental data pooled from the literature.
Parts stem from different laboratories: compare values within a part only. Substitutions count along the parent as printed.

Sample 1
Target: CCNE2, cyclin fold, Cln2 fusion (human)
Method: yeast growth competition, sequencing
Sample: yeast
Setting: weak parent motif
Relative to: not given
Direction: higher = stronger binding
Parent: PKMYT1 docking peptide (human); SFEPRNLLSLFED
Variant	normalised enrichment score
E3N	-0.806
D13Q	0.76
R5H	-0.993
S9A	0.508
L10N	0.513
F11Y	0.615
F2A	-0.137
L7C	0.144
D13K	0.236
S1C	0.227

Sample 2
Target: RNA binding protein fox-1 homolog 2, RRM domain, GST-SBP tag (RBFOX2, Homo sapiens, UniProt O43251-10, residues 100-194)
Method: RNA Bind-n-Seq
Molecule type: RNA
Sample: in vitro
Tested at: 365 nM
Setting: natural RNA segment, single round, ends assumed
Relative to: no-protein control
Direction: higher = stronger binding
Construct (chain): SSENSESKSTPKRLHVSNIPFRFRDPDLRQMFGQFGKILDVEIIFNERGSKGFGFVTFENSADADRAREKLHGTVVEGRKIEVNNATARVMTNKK
Strand	RBNS enrichment (R)
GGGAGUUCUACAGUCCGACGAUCUCCAUCCAGACCACUUCACCUGCACAUUCUGCCUGCGCCCACUCACCAAAGGCUCCUUCCAGGAGCGCGCCAGCAAGCCUUACUGCCAGCCUUGCUUCCUGAAGCUCUUCUGGAAUUCUCGGGUGCCAA	1.42
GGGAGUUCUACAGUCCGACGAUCGACACAGAUUCUGGUUCAUUCAUUCAUUCAUUCCUUAGACAUUUUCGGUUUUACAAAGGAAGAACAGGUUUCCUAAGGCCGAGGAAAUCUUGGAGAAUAAAAAAGGACUUUGGAAUUCUCGGGUGCCAA	0.354
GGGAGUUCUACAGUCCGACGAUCAUGGCCAAACUAUUUUGAAUUUUGUUGUCUGGCCCUCAGUGCCCUGCCCUCUCCCUUUGCAGGACCACAGCUCCCGUCCUUUGGCUUCUGGUCCUUCCUGUUCUCCACCCUGGAAUUCUCGGGUGCCAA	0.643
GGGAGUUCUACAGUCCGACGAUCAGAAAUGCACACCUGUCAGCCCAGGACCAGCUUUGGUGGCUAAAGGGAAUAUUUUAACUCGCAAGGUGAUGUUCUGUACAAAACGUGGUAUAUGUUACCCACAGUCCAUUUGGAAUUCUCGGGUGCCAA	0.287
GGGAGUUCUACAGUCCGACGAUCUUCCCUAAACUCUUGACACCCCCAGAGGGGUUGAGAUUGUUGUGUGAGUAGGGGGGGGGGGGGAACGGCCUUGCGGAGGCCACCAUAGAACCGUCCUAAUUUUUCAUAGAUGGAAUUCUCGGGUGCCAA	0.412
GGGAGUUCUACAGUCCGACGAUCAGCCAGAGAGGGGGGUCCAAGUGCGGGAUGUGGGUGGCUCUGUGGUUCAGUGGCUCUGUGGUAGUUCCUAGCACUGCAGACUUCAUGACUCCCCACUUAAGUCCAAGUCAUGGAAUUCUCGGGUGCCAA	0.599
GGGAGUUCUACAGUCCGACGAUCGCAAGAAAUCAUAAAAUGAAGACUUAUACCAUUGUGUUUAAGCUGUAUUGAAUUAUCUGUGGAAUGCAUUGUGAACUGUAAAGCAAAGUAUCAAUAAAGCUUAUAGACUUUGGAAUUCUCGGGUGCCAA	0.698
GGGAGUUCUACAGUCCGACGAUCGCAAUAACAAGGUUUUAAAAGAUAAUAAUAAAGAGGAAACACGACUAUUGGACAAAGUAUUUAUGUAAUUAUUUGAUAUCUCUUGUAAAUAGGUGGAAUAUGACUGCUCAUGGAAUUCUCGGGUGCCAA	0.457

Sample 3
Target: Interferon regulatory factor 7, full length, phosphomimetic (IRF7, Homo sapiens, UniProt Q92985, residues 1-503, S471D/S472D/S475D/S476D/S477D/S483D/S484D/S487D)
UniProt Q92985, sequence (whole entry, unmodified, looked up): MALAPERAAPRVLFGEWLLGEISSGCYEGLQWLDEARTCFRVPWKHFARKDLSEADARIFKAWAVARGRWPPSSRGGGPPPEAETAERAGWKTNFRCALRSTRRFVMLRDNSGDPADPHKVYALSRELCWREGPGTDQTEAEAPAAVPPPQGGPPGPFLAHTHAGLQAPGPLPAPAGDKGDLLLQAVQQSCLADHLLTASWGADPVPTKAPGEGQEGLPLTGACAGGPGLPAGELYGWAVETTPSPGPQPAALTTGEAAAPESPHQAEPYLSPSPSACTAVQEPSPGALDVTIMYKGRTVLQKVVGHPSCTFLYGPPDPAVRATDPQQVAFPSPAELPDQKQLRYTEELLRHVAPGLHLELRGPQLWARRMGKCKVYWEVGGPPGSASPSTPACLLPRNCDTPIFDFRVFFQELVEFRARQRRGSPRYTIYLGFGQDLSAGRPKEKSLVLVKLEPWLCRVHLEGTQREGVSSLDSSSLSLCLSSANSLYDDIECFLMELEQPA
Method: protein-binding microarray
Molecule type: double-stranded DNA, one strand shown
Sample: in vitro
Tested at: 2200 nM top
Setting: 60-bp whole probe
With: salmon DNA 0.4 mg/ml
Relative to: random background probes
Direction: higher = stronger binding
All sequences stand within: GCCTAGCAC … GTCTTGATTCGCTTGACGCTGCTG
Strand	fitted relative affinity
TTAGGACTGCTGATCCTTTAGTGCTAG	-0.0626 z-score
TCATCTTCAGGTTCTCCCACTGTGCTA	1.92 z-score
GACGGTTTCGACACTGGGAACGTGCTA	2.65 z-score
TCAATATTATATCTGTGACTGTGCTAG	0.623 z-score
GACGCTATCAGTTTCGAGACGTGCTAG	3.48 z-score
CCCAATTCTCTTTTCACTTTGTGCTAG	3.4 z-score
TCATATTTTTTTGTAATACTGTGCTAG	0.898 z-score
TTAAGTCTCGGTTTCGGTTAGTGCTAG	7.85 z-score
TTAGGAATGGGACTGGGTTAGTGCTAG	-0.678 z-score
TTCGGTTTCGACTATCGGTTAGTGCTA	5.8 z-score
TGAGGTCTCCTTATCCTTTAGTGCTAG	0.689 z-score
CAAGTGGAGCCCAGGCCAGAGTGCTAG	-1.3 z-score
GACGGTATCGGTTTTCGGGACGTGCTA	2.67 z-score
TTACGTTTCGACACTGGGTTAGTGCTA	4.3 z-score
TTAGGTATTGACACTGGGTTAGTGCTA	-0.122 z-score
GACGAACTGAGACCGGAGACGTGCTAG	-0.263 z-score
GTCGGTATCGACTTTCGGGACGTGCTA	3.45 z-score
GACGGTCTCGGGCTGGGGACGTGCTAG	-0.541 z-score

Mixed results
Molecule	target	test	test system	conditions	how to read	quantity	result
PhoQ, residues 284 288 289 292 302 303 TGYLSA	PhoP, residues 12 14 15 18 19 AQALL (Escherichia coli, UniProt P23836)	Sort-seq, item: YFP reporter	E. coli	PhoQ-PhoP variant library, with: 10 µM Mg2+	relative to: high Mg2+ state, higher = stronger signaling	fold induction	9.28

A few entries again (sample 3):
Strand	fitted relative affinity
TCATCTTCAGGTTCTCCCACTGTGCTA	1.92 z-score
TTAGGTATTGACACTGGGTTAGTGCTA	-0.122 z-score
TTAGGACTGCTGATCCTTTAGTGCTAG	-0.0626 z-score
